Measurements collected from several papers.
Protocols differ between the studies behind these lines. ± marks the error that the study gave.
Chain of UniProt Q86UE8 (whole entry, looked up): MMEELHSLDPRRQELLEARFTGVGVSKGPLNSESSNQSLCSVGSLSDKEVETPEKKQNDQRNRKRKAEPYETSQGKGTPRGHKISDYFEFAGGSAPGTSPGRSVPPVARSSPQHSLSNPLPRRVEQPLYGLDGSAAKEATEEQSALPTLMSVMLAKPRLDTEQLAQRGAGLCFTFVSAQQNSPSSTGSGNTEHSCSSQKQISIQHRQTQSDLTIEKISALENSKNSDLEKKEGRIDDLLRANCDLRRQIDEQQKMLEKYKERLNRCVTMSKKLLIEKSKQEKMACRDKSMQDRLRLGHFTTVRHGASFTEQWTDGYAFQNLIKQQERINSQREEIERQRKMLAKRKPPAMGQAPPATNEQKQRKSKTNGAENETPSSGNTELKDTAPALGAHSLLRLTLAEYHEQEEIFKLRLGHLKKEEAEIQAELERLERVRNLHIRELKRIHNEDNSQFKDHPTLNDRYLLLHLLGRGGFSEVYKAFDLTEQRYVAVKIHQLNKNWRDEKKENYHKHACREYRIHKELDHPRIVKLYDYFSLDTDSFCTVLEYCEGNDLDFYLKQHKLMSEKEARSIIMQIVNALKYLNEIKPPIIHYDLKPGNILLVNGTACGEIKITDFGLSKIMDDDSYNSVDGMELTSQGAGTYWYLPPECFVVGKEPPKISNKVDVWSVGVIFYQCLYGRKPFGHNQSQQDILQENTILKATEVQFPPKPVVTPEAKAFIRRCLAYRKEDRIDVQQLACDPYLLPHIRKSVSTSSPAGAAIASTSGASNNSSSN

| SMILES | target or system | assay | system | conditions | how to read | quantity | result |
| --- | --- | --- | --- | --- | --- | --- | --- |
| CCOC(=O)C1=C(CN2CCC(C(=O)Nc3ccccc3B(O)O)C2)NC(c2nccs2)=NC1c1ccc(F)cc1Br (stereo not shown) | hepatitis B virus | – | HepDES19 | – | reference: CC50 over EC50 | selectivity index | > 25 |
| Fc1ccc(C2=CCNCC2)cc1 | Salmonella typhimurium | SOS/umu test | TA1535/pSK1002 | 0.004 mg/mL, 4 h, without S9, full range | – | survival | 95.8% |
| CCOC(=O)C1=C(CN2CCC[C@@H]2C(=O)Nc2cccc(B(O)O)c2)NC(c2nccs2)=N[C@@H]1c1ccc(F)cc1Br | hepatitis B virus | – | HepDES19 | – | reference: CC50 over EC50 | selectivity index | 16 |
| O=[N+]([O-])c1ccc(N2CCC(NCCC(O)c3ccc(F)c4ccccc34)CC2)c(C(F)(F)F)c1 (stereo not shown) | Salmonella typhimurium | SOS/umu test | TA1535/pSK1002, TGA medium | 7.63e-06 mg/mL, 4 h, without S9 | – | survival | 105% |
| CCOC(=O)C1=C(CN2CCC[C@@H]2C(=O)Nc2ccc(B(O)O)cc2)NC(c2nccs2)=N[C@H]1c1ccc(F)cc1Br | hepatitis B virus | – | HepDES19 | – | reference: CC50 over EC50 | selectivity index | 481 |
| O=[N+]([O-])c1ccc(N2CCN(CCC(O)c3ccc(F)cc3)CC2)c(C(F)(F)F)c1 (stereo not shown) | Salmonella typhimurium | genotoxicity, SOS/umu test | TA1535/pSK1002 | 0.002 mg/mL, 4 h, without S9, lower range | – | induction factor | 0.8 |
| [Cl-].[Cl-].[Pt+2].[Ru+2].c1ccc(-c2nc3cc4ccccc4cc3nc2-c2ccccn2)nc1.c1cnc2c(c1)ccc1cccnc12.c1cnc2c(c1)ccc1cccnc12 | Danio rerio | – | embryos | 45 µM, 72 h | – | survival rate | 80 ± 4% |
| O=[N+]([O-])c1ccc(NC2CCNCC2)c(C(F)(F)F)c1 | Salmonella typhimurium | SOS/umu test | TA1535/pSK1002 | 0.125 mg/mL, 4 h, with S9, full range | – | survival | 91.6% |
| CC(=O)N1CCC(C(=O)N2CCN3C(=O)c4cc(-c5ccccc5)ccc4NC(=O)C3C2)CC1 (stereo not shown) | Escherichia coli | – | WP2 uvrA | 1581 µg/plate, without S9 | – | revertants per plate | 31 |
| CCOP(=S)(OCC)SCSCC | Oncorhynchus kisutch | oxon formation, substrate | liver microsomes | 30 min, pH 7.6, freshwater-acclimated, with: NADPH | – | Km | 122 ± 11.8 µM |
| CCOC(=O)C1=C(CN2CCN(Cc3cccc(B(O)O)c3)CC2)NC(c2nccs2)=NC1c1ccc(F)cc1Br (stereo not shown) | hepatitis B virus | – | HepDES19 | – | reference: CC50 over EC50 | selectivity index | 24 |
| COc1cc2c(Oc3ccc4[nH]c(C)cc4c3F)ccnc2cc1OCC1(N)CC1 | – | – | paediatric recurrent refractory sarcoma | 12 mg | – | grade 3 ALP elevation | 0% |
| CC(C)N(N=O)C(C)C | Salmonella typhimurium | mutagenicity, Ames plate incorporation | TA1537 | 1500 µg/plate, without S9, methanol | – | revertant colonies per plate | 17.3 ± 4 |
| CCOC(=O)C1=C(CN2CCN(Cc3ccc(B4OC(C)(C)C(C)(C)O4)cc3)CC2)NC(c2nccs2)=NC1c1ccc(F)cc1Br (stereo not shown) | hepatitis B virus | – | HepDES19 | – | reference: CC50 over EC50 | selectivity index | 35 |
| Cc1oc(-c2cccc(Cl)c2)nc1CN1CCCC(C(=O)NCCc2ccc(Cl)cc2)C1 (stereo not shown) | Vero-E6 | CellTiter-Glo ATP | – | 72 h, retest 8-point duplicates | reference: DMSO 0%, hyamine -100%, more negative, more toxic | maximum response | -45.6% |
| CC[C@H](C)[C@H](NC(=O)[C@H](Cc1ccccc1)NC(=O)[C@H](CCC(=O)O)NC(=O)[C@H](CCCNC(=N)N)NC(=O)[C@H](C)NC(=O)[C@H](C)NC(=O)[C@H](CCC(N)=O)NC(=O)[C@H](CCC(=O)O)NC(=O)[C@H](CCC(=O)O)NC(=O)[C@H](CC(C)C)NC(=O)[C@H](Cc1ccc(O)cc1)NC(=O)[C@H](CO)NC(=O)[C@H](CO)NC(=O)[C@@H](NC(=O)[C@H](CC(=O)O)NC(=O)[C@H](CO)NC(=O)[C@@H](NC(=O)[C@H](Cc1ccccc1)NC(=O)[C@@H](NC(=O)CNC(=O)[C@H](CCC(=O)O)NC(=O)[C@H](C)NC(=O)CCc1c[nH]cn1)[C@@H](C)O)[C@@H](C)O)C(C)C)C(=O)N[C@@H](C)C(=O)N[C@@H](Cc1c[nH]c2ccccc12)C(=O)N[C@@H](CC(C)C)C(=O)N[C@H](C(=O)N[C@@H](CCCNC(=N)N)C(=O)NCC(=O)N[C@@H](CCCNC(=N)N)C(=O)N[C@@H](CCCCNC(=O)COCCOCCNC(=O)COCCOCCNC(=O)CC[C@H](NC(=O)CCCCCCCCCCCCCCCCC(=O)O)C(=O)O)C(=O)NCC(=O)NCC(=O)N[C@@H](CO)C(=O)N[C@@H](CCCCNc1c(NCCCCCN(O)C(=O)CCC(=O)NCCCCCN(O)C(=O)CCC(=O)NCCCCCN(O)C(C)=O)c(=O)c1=O)C(=O)O)C(C)C [zirconium-89 labelled] | – | – | rat, intestine | iv, 3 nmol/kg, 24 h, ex vivo | – | tissue uptake | 0.19 %ID/g |
| OC(CCN1CC=C(c2ccc(F)cc2)CC1)c1ccc(F)c2ccccc12 (stereo not shown) | Salmonella typhimurium | SOS/umu test | TA1535/pSK1002 | 0.001 mg/mL, 4 h, with S9, lower range | – | survival | 123% |
| CCOc1ccc(NC(=O)c2cnn(-c3ccc(C)c(Cl)c3)c2C2CCNCC2)cc1 | Vero-E6 | CellTiter-Glo ATP | – | 72 h, first round 5-point | reference: DMSO 0%, hyamine -100%, more negative, more toxic | maximum response | -8.17% |
| C[C@H]1CN(c2n[nH]c3nc(N[C@H]4CC[C@H](NS(=O)(=O)CCC(F)(F)F)CC4)ncc23)CCO1 | TLK2 (Homo sapiens, UniProt Q86UE8) | inhibitor, Kinobeads competition profiling | – | 0.16 µM | reference: vehicle | relative abundance | 1.04 |
| N#C[C@@]1(n2ccc(N)nc2=O)O[C@H](CO)[C@@H](O)[C@H]1O | Salmonella typhimurium | – | TA100 | 25 µM, without S9, unit not given | reference: control | viability | 93 |
| Cc1cc(C(=O)NC(C)(C)COc2cccc3c2C(N)=NS(=O)(=O)N3)cc(C)n1 | Escherichia coli | Ames test, confirmatory | WP2 uvrA | 100 µg/plate | reference: solvent control | revertant ratio | 1 |
| CCOC(=O)C1=C(CN2CCN(Cc3ccc(B(O)O)cc3)CC2)NC(c2nccs2)=NC1c1ccc(F)cc1Br (stereo not shown) | hepatitis B virus | – | HepDES19 | – | reference: CC50 over EC50 | selectivity index | 30 |
| CNC(=O)c1c(N(C)N=O)ncn1C | Salmonella typhimurium | plate incorporation | TA98, water | 50 µg/plate, without S9 | – | revertant colonies per plate | 27.7 ± 7 |
| [Cl-].[Cl-].[Pt+2].[Ru+2].c1ccc(-c2nccnc2-c2ccccn2)nc1.c1cnc2c(c1)ccc1cccnc12.c1cnc2c(c1)ccc1cccnc12 | Danio rerio | – | embryos | 45 µM, 0 h | – | survival rate | 100% |
| O=c1cccc(O)c(O)c1O | hepatitis B virus | – | HepDES19 | – | reference: CC50 over EC50 | selectivity index | 2.73 |
| [Cl-].[Cl-].[Pt+2].[Ru+2].c1ccc(-c2nc3ccccc3nc2-c2ccccn2)nc1.c1cnc2c(c1)ccc1cccnc12.c1cnc2c(c1)ccc1cccnc12 | Danio rerio | – | embryos | 60 µM, 12 h | – | survival rate | 83.3 ± 4.6% |
| Nc1ccn([C@@H]2CS[C@H](CO)O2)c(=O)n1 | hepatitis B virus | – | HepDES19 | – | reference: CC50 over EC50 | selectivity index | > 125 |
| COc1cccc(-c2n[nH]c(SCc3ccccn3)n2)c1OC | Escherichia coli | Ames test, preincubation | WP2 uvrA | 2.0 mg/plate, without S9 | – | revertant colonies per plate | 11 |

Repeated from above:
| SMILES | target or system | assay | system | conditions | how to read | quantity | result |
| --- | --- | --- | --- | --- | --- | --- | --- |
| O=[N+]([O-])c1ccc(N2CCC(NCCC(O)c3ccc(F)c4ccccc34)CC2)c(C(F)(F)F)c1 (stereo not shown) | Salmonella typhimurium | SOS/umu test | TA1535/pSK1002, TGA medium | 7.63e-06 mg/mL, 4 h, without S9 | – | survival | 105% |
